Results collected from several papers.
Lines come from different studies, so protocols differ. ± marks the error that the study gave.

The relative survival of `O=NN1CC2CC(C1)c1cc3nccnc3cc12` is reported as 86.5% (TK6 expressing CYP3A4; 100 µM, 4 h, without S9; baseline: vehicle).
For `C=C[C@@](C)(/C=C/c1ccc(O)cc1)CCC=C(C)C`, the cytotoxicity was 0% (Vero E6; 6.25 µM).
`Cc1cc(C)c(C#N)c(SCC(=O)Nc2cccnc2)n1` has a viability of 77 ± 6% (MDA-MB-231; MTT; 100 µM, 72 h).
With `O=C(Nc1cnccc1Cl)N1CCN(Cc2ccc3c(c2)OC(F)(F)O3)CC1` the concentration was 105 ± 3.9 nM (COS cells expressing human FAAH; COS cell culture supernatant; 100 nM, 3 h).
`CC(C)=CCc1c(O)ccc(C(=O)/C=C/c2ccc(O)cc2)c1O` has a cytotoxicity of 0% (Vero E6; 50 µM).
For `COc1cc(CNC(=O)c2sc3nc(C)cc(-c4ccccc4)c3c2N)cc(OC)c1OC`, the viability was 48 ± 5% (MDA-MB-231; MTT; 100 µM, 72 h).
`CN(C(=O)n1cnc(-c2ccc[n+]([O-])c2)c1)C1CCCCC1` gave a concentration of 101 ± 1.1 nM (COS cells expressing human FAAH; COS cell culture supernatant; 100 nM, 24 h).
`CC(C)C[C@@H](NC(=O)[C@H](C)NC(=O)CNC(=O)[C@@H](NC=O)C(C)C)C(=O)N[C@@H](C)C(=O)N[C@@H](C(=O)N[C@H](C(=O)N[C@@H](C(=O)N[C@@H](Cc1c[nH]c2ccccc12)C(=O)N[C@H](CC(C)C)C(=O)N[C@@H](Cc1ccc2[nH]ccc2c1)C(=O)N[C@H](CC(C)C)C(=O)N[C@@H](Cc1c[nH]c2ccccc12)C(=O)N[C@@H](C(=O)N[C@@H](Cc1c[nH]c2ccccc12)C(=O)NCCO)C(C)C)[C@H](C)O)C(C)C)C(C)C` has an IC50 of 0.416 ± 0.089 µM (P388 (mouse); cytotoxicity, WST-1; 92 h).
`O=c1ccc2ccccc2o1` has a chance response of 0.28% (NHEK; caspase-3/7 activity; concentration not given, 24 h).
`COc1ccccc1C(NC(C)=O)c1cc(Cl)c2cccnc2c1O` (centres unmarked) has a CC50 of greater than 20 µM (human cells).
The viability of `O=c1c(O[C@@H]2O[C@H](CO)[C@H](O)[C@H](O)[C@H]2O)c(-c2ccc(O)c(O)c2)oc2cc(O)cc(O)c12` is reported as 104% (Caco-2; CCK-8; 1.25 µM, 24 h).
`CC[C@@H](C)[C@H]1NC(=O)[C@@H](Cc2ccc(O)cc2)NC(=O)[C@H](CCCNC(=N)N)NC(=O)[C@H](CCSC)NC(=O)[C@H](CC(C)C)NC(=O)[C@H](CC(C)C)NC(=O)[C@H]2CCCN2C(=O)[C@H](CC(C)C)NC(=O)CNC(=O)CNC(=O)CNC1=O`: “Papp A to B” 0.07 ×10⁻⁶ cm/s (MDCK-MDR1; HBSS, 0.25% BSA; 2 h).
`O=C(O)C(F)(F)C(F)(F)C(F)(F)C(F)(F)C(F)(F)C(F)(F)C(F)(F)F`: “passive diffusion clearance” 0.051 mL/min/106 (HEK293 wild-type; kidney; basal, blood-to-cell).
`COc1ccc(C[C@@H]2c3cc(Oc4cc(C[C@@H]5c6cc(O)c(OC)cc6CCN5C)ccc4O)c(OC)cc3CCN2C)cc1` has a cytotoxicity of 25% (Vero E6; 200 µM).
The concentration of `O=C(Nc1cccnn1)N1CCC(=Cc2cccc(Oc3ccc(C(F)(F)F)cn3)c2)CC1` is reported as 72.6 ± 4.4 nM (COS cells expressing human FAAH; COS cell culture supernatant; 100 nM, 1 h).
For `CC(C)CC(=O)OC[C@H]1O[C@@](C#N)(c2ccc3c(N)ncnn23)[C@H](O)[C@@H]1O`, the recovery was 97% (Caco-2; bidirectional permeability; 90 µM, 120 min; apical to basolateral).
`Nc1c(C(=O)Nc2cccnc2)sc2nc(-c3ccccc3)cc(C(F)(F)F)c12` gave a viability of 38 ± 1% (MDA-MB-231; MTT; 100 µM, 72 h).
For `O=C(/C=C/c1ccc(O)c(O)c1/C=C/c1ccc(O)c(O)c1)O[C@H](Cc1ccc(O)c(O)c1)C(=O)O`, the cytotoxicity was 25% (Vero E6; 200 µM).
`CC(C)[C@H]1C(=O)N[C@@H](CCCN=C(N)N)C(=O)NCC(=O)N[C@@H](CC(=O)O)C(=O)N[C@H](Cc2ccccc2)C(=O)N1C`: “Papp A to B” 0.0541 ×10⁻⁶ cm/s (Caco-2; 20 µM).
`FC(F)(F)c1ccc(CNc2ccc(Cc3c[nH]c4ncc(Cl)cc34)cn2)cn1` gave a CC50 of 18.2 µM (human cells).
For `Oc1ccc(C(c2ccc(O)cc2)(C(F)(F)F)C(F)(F)F)cc1`, the necrotic cells was 39.4 ± 14.1% (HepG2 spheroids; annexin V-FITC/PI flow cytometry; 10 µM, 96 h).
`Cc1ccc(Nc2ccnc(N3CCC(C(=O)NCCCc4ccccc4)CC3)n2)cc1` gave an AC50 of 11.2 µM (Vero E6, no virus; cytotoxicity, CellTiter-Glo).
For `O=C(O[C@@H]1Cc2c(O)cc(O)cc2O[C@@H]1c1cc(O)c(O)c(O)c1)c1cc(O)c(O)c(O)c1`, the cytotoxicity was 0% (Vero E6; 6.25 µM).
Under “late apoptotic cells”, `CC(C)(c1ccc(O)cc1)c1ccc(O)cc1` is recorded as 16.3 ± 3.47% (HepG2 spheroids; annexin V-FITC/PI flow cytometry; 1 µM, 96 h).
`O=C(Nc1cnccc1Cl)N1CCN(Cc2ccc3c(c2)OC(F)(F)O3)CC1` gave a supernatant concentration of 90.1 ± 2.7 nM (COS cells expressing human FAAH; 100 nM, 1 h).
The viability of `CCOC(=O)c1ccc(NC(=O)c2sc3nc(C)cc(-c4ccccc4)c3c2N)cc1` is reported as 40 ± 4% (MDA-MB-231; MTT; 100 µM, 72 h).
For `C=CC(=O)N1C/C(=C\c2ccc([N+](=O)[O-])cc2)C(=O)/C(=C/c2ccc([N+](=O)[O-])cc2)C1`, “ATP level reduction” read -5.54% (ARPE-19 HiBiT-fibulin-3 knock-in; cell viability, CellTiter-Glo; 1.66 µM, 48 h; baseline: vehicle).
For `O=S(=O)(c1ccc(O)cc1)c1ccc(O)cc1`, the necrotic cells was 8.8 ± 2.43% (HepG2 spheroids; annexin V-FITC/PI flow cytometry; 10 µM, 24 h).
`CC(C)C[C@@H]1NC(=O)[C@@H](CCCNC(=N)N)NC(=O)[C@@H](Cc2ccc(O)cc2)NC(=O)[C@H]2CCCN2C(=O)[C@H](CC(C)C)NC(=O)[C@H](CC(C)C)NC(=O)[C@@H]2CCCN2C(=O)[C@H]([C@@H](C)O)NC(=O)[C@H]([C@@H](C)O)NC(=O)CNC(=O)CNC1=O` — result for “Papp A to B”: 0.45 ×10⁻⁶ cm/s (MDCK-MDR1; HBSS, 0.25% BSA; 2 h).
With `N#C[C@@]1(n2ccc(N)nc2=O)O[C@H](CO)[C@@H](O)[C@H]1O` the micronucleated cells was 0.44% (CHO; 62 µM, with S9).
For `CC(C)C[C@H]1C(=O)N(C)[C@@H](CC(C)C)C(=O)N[C@H](Cc2ccc(O)cc2)C(=O)N2CCC[C@@H]2C(=O)N[C@H]([C@H](C)O)C(=O)NCC(=O)NCC(=O)N[C@@H](CO)C(=O)N[C@@H](C(C)C)C(=O)N[C@@H](C)C(=O)N[C@@H](C)C(=O)N[C@@H](Cc2ccccc2)C(=O)N1C`, “Papp A to B” read 0.12 ×10⁻⁶ cm/s (MDCK-MDR1; HBSS, 0.25% BSA; 2 h).
With `COc1ccc(C(C)(C)c2cnc(SCCOc3ccc(-n4ccnc4)cc3)n2-c2ccc(F)cc2)cc1OC` the induction Emax was 4.82 fold (sandwich-cultured human hepatocytes; gene induction, inducer, item: CYP2B6 mRNA; 48 h; baseline: vehicle).
For `CC(C)C[C@@H](NC(=O)[C@H](C)NC(=O)CNC(=O)[C@@H](NC=O)C(C)C)C(=O)N[C@@H](C)C(=O)N[C@@H](C(=O)N[C@H](C(=O)N[C@@H](C(=O)N[C@@H](Cc1c[nH]c2ccccc12)C(=O)N[C@H](CC(C)C)C(=O)N[C@@H](Cc1ccc2[nH]ccc2c1)C(=O)N[C@H](CC(C)C)C(=O)N[C@@H](Cc1c[nH]c2ccccc12)C(=O)N[C@H](CC(C)C)C(=O)N[C@@H](Cc1c[nH]c2ccccc12)C(=O)NCCO)C(C)C)C(C)C)C(C)C`, the IC50 was 0.00391 ± 0.00083 µM (P388 (mouse); cytotoxicity, WST-1; 92 h).
For `N=C(N)NN=C(C=Cc1ccc([N+](=O)[O-])o1)C=Cc1ccc([N+](=O)[O-])o1`, “ATP level reduction” read 7.42% (ARPE-19 HiBiT-fibulin-3 knock-in; cell viability, CellTiter-Glo; 1.66 µM, 48 h; baseline: vehicle).
`COC(=O)c1ccc(NC(=O)c2sc3nc(C)cc(C)c3c2N)cc1` has a viability of 85 ± 7% (MDA-MB-231; MTT; 100 µM, 72 h).
With `CC(c1ccccc1)(c1ccc(O)cc1)c1ccc(O)cc1` the necrotic cells was 6.74 ± 2.33% (HepG2 spheroids; annexin V-FITC/PI flow cytometry; 40 µM, 24 h).
The viability of `Cc1cc(C(F)(F)F)c2c(N)c(C(=O)Nc3ccon3)sc2n1` is reported as 42 ± 7% (MDA-MB-231; MTT; 100 µM, 72 h).
`CCSc1nc2ccccc2n1Cc1nnc(-c2cccc(OC)c2O)o1` has a viability of 77.2 ± 4.2% (neutrophils; fresh heparinized human blood; 200 µg/mL, 30 min).

Some of these lines once more:
`O=c1ccc2ccccc2o1` has a chance response of 0.28% (NHEK; caspase-3/7 activity; concentration not given, 24 h).
`COc1ccccc1C(NC(C)=O)c1cc(Cl)c2cccnc2c1O` (centres unmarked) has a CC50 of greater than 20 µM (human cells).
The viability of `O=c1c(O[C@@H]2O[C@H](CO)[C@H](O)[C@H](O)[C@H]2O)c(-c2ccc(O)c(O)c2)oc2cc(O)cc(O)c12` is reported as 104% (Caco-2; CCK-8; 1.25 µM, 24 h).
